# Published values from different studies.
# ± marks the error that the study gave.
SMILES,assay,system,conditions,Cmax
CC(C)c1nc(N(C)S(C)(=O)=O)nc(-c2ccc(F)cc2)c1/C=C/[C@@H](O)C[C@@H](O)CC(=O)O,,"human, plasma","oral, 20 mg, day 2, geometric mean, alone",5.04 ng/mL
Cc1cn(C(=O)c2c(-c3c(Cl)cc(Cl)cc3Cl)noc2C(C)(C)F)c2cccc(/C=C/C(=O)O)c12,,human patients,"700 mg bid, cycle 1 day 1",23800 ng/mL
C#C[C@]1(CO)O[C@@H](n2cnc3c(N)nc(F)nc32)C[C@@H]1O,,"human, plasma","oral, 100 mg, single dose, geometric mean",3230 nM
C[C@@H](c1ccc2nccn2c1)n1nnc2ncc(-c3cnn(C)c3)nc21,,"human, plasma","oral, 300 mg, cycle 1 day 1, single dose",1980 ng/mL
Cc1ccc(C(=O)N(CCCN)C(c2nc3snc(C)c3c(=O)n2Cc2ccccc2)C(C)C)cc1 (centres unmarked),,"human patients, plasma","intravenous, 16 mg/day, day 3 of induction course, geometric mean",99.4 ng/mL
C[C@H](CCC(=O)NCCS(=O)(=O)O)[C@H]1CC[C@H]2[C@@H]3CC[C@@H]4C[C@H](OS(=O)(=O)O)CC[C@]4(C)[C@H]3CC[C@]12C,,"human, plasma","concentration not given, endogenous baseline diurnal",219 ± 51 nM
COc1cc([C@@H]2Oc3cc([C@H]4Oc5cc(O)cc(O)c5C(=O)[C@@H]4O)ccc3O[C@H]2CO)ccc1O,,"OATP1B1/1B3 humanized mice, plasma","oral gavage, 500 mg/kg silymarin",2050 nM
CN(C(=O)C(C)(C)c1cc(C(F)(F)F)cc(C(F)(F)F)c1)c1cnc(N2C[C@H]3COCCN3C[C@H]2CO)cc1-c1ccc(F)cc1[14CH3],measured: total radioactivity,"human, plasma","oral, 120 mg",960 ng equiv/mL
C=CC(=O)N(C)CCOc1c(N)ncnc1-c1cc(F)cc(NC(=O)c2ccc(C3CC3)cc2F)c1C,,"human, whole blood","oral, 1.5 mg, single ascending dose, fasted",1.26 ng/mL
COc1ccc2nc([S@@+]([O-])Cc3ncc(C)c(OC)c3C)[nH]c2c1,,"human male, dried plasma spots","oral, 5 mg racemic omeprazole, together with: fluvoxamine and voriconazole",446 nM
CC(C)n1c(Nc2cccnc2)nc2cnc(Nc3ccc(N4CCN(C)CC4)cc3)nc21,,"human, male, plasma","oral, 100 mg, day 1, single dose alone",44 ng/mL
CC(C)(Sc1ccncc1-c1ccc(C#N)c2ccccc12)C(=O)O,,"human, plasma","oral, 5 mg once daily, geometric mean, together with: febuxostat 40 mg",14.5 ng/mL
Cc1cc(OCCOCCC(F)(F)P(=O)(O)O)ccc1CCc1cnc2c(N)nc3cc(CCC(=O)O)ccc3c2c1,,"human, serum","intratumoral, 400 µg every 2 weeks, cycle 2 day 15",1.41 ng/mL
CN1CCC(COc2cnc(-c3cccc(Cn4nc(-c5cccc(C#N)c5)ccc4=O)c3)nc2)CC1,,human,"500 mg, day 1, single dose alone, geometric mean",308 ng/mL
Cc1cc(/C=C/C#N)cc(C)c1Nc1ccnc(Nc2ccc(C#N)cc2)n1,,"human, normal renal function, plasma","oral, dose not given, steady state",140 ng/mL
COC(=O)N[C@H](C(=O)N1CCC[C@H]1c1nc2cc([C@H]3CC[C@H](c4cc5nc([C@@H]6CCCN6C(=O)[C@@H](NC(=O)OC)[C@@H](C)OC)[nH]c5cc4F)N3c3cc(F)c(N4CCC(c5ccc(F)cc5)CC4)c(F)c3)c(F)cc2[nH]1)[C@@H](C)OC,,"healthy human subjects, plasma","oral, dose not given, single dose alone",320 ng/mL
NC[C@@]1(CC(=O)O)[C@@H]2CC[C@H]3C[C@@H]2[C@@H]1C3,,"human, moderately renal impairment, plasma",geometric least squares mean,410 ng/mL
C#Cc1cccc(Nc2ncnc3cc(OCCOC)c(OCCOC)cc23)c1,,"human, plasma","oral, 100 mg daily, day 8, together with: docetaxel",2780 ± 1220 nM
COc1nnc2ccc(N3CCC(c4ccc(OCCN5CCN(C)C(=O)[C@H]5C)cc4)CC3)nn12,,"human, plasma","oral, 5 mg once daily, single dose, monotherapy",21.4 nM
CC(C)NC(=O)COc1cccc(-c2nc(Nc3ccc4[nH]ncc4c3)c3ccccc3n2)c1,,"human male, plasma","oral, 200 mg, day 6, fed, alone, geometric mean",2080 ng/mL

# Excerpt of the above:
SMILES,assay,system,conditions,Cmax
CC(C)NC(=O)COc1cccc(-c2nc(Nc3ccc4[nH]ncc4c3)c3ccccc3n2)c1,,"human male, plasma","oral, 200 mg, day 6, fed, alone, geometric mean",2080 ng/mL
CC(C)(Sc1ccncc1-c1ccc(C#N)c2ccccc12)C(=O)O,,"human, plasma","oral, 5 mg once daily, geometric mean, together with: febuxostat 40 mg",14.5 ng/mL
C=CC(=O)N(C)CCOc1c(N)ncnc1-c1cc(F)cc(NC(=O)c2ccc(C3CC3)cc2F)c1C,,"human, whole blood","oral, 1.5 mg, single ascending dose, fasted",1.26 ng/mL
